Assay results collected from several papers.
Numbered parts are unrelated; each lists some results of a single study. ± gives the spread as reported.
UniProt P68400, sequence (whole entry, looked up): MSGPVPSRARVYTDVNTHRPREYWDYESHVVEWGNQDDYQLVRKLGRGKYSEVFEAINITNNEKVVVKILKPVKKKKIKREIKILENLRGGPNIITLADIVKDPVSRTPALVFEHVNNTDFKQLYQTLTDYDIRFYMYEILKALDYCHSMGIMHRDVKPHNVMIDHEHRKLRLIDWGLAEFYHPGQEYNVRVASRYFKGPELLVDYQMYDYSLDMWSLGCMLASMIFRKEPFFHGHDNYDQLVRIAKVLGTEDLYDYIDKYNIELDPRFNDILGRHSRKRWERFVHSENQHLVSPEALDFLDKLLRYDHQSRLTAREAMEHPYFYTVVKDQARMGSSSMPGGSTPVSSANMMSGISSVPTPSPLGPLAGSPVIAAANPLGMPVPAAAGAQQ
UniProt Q5S007, sequence (whole entry, looked up): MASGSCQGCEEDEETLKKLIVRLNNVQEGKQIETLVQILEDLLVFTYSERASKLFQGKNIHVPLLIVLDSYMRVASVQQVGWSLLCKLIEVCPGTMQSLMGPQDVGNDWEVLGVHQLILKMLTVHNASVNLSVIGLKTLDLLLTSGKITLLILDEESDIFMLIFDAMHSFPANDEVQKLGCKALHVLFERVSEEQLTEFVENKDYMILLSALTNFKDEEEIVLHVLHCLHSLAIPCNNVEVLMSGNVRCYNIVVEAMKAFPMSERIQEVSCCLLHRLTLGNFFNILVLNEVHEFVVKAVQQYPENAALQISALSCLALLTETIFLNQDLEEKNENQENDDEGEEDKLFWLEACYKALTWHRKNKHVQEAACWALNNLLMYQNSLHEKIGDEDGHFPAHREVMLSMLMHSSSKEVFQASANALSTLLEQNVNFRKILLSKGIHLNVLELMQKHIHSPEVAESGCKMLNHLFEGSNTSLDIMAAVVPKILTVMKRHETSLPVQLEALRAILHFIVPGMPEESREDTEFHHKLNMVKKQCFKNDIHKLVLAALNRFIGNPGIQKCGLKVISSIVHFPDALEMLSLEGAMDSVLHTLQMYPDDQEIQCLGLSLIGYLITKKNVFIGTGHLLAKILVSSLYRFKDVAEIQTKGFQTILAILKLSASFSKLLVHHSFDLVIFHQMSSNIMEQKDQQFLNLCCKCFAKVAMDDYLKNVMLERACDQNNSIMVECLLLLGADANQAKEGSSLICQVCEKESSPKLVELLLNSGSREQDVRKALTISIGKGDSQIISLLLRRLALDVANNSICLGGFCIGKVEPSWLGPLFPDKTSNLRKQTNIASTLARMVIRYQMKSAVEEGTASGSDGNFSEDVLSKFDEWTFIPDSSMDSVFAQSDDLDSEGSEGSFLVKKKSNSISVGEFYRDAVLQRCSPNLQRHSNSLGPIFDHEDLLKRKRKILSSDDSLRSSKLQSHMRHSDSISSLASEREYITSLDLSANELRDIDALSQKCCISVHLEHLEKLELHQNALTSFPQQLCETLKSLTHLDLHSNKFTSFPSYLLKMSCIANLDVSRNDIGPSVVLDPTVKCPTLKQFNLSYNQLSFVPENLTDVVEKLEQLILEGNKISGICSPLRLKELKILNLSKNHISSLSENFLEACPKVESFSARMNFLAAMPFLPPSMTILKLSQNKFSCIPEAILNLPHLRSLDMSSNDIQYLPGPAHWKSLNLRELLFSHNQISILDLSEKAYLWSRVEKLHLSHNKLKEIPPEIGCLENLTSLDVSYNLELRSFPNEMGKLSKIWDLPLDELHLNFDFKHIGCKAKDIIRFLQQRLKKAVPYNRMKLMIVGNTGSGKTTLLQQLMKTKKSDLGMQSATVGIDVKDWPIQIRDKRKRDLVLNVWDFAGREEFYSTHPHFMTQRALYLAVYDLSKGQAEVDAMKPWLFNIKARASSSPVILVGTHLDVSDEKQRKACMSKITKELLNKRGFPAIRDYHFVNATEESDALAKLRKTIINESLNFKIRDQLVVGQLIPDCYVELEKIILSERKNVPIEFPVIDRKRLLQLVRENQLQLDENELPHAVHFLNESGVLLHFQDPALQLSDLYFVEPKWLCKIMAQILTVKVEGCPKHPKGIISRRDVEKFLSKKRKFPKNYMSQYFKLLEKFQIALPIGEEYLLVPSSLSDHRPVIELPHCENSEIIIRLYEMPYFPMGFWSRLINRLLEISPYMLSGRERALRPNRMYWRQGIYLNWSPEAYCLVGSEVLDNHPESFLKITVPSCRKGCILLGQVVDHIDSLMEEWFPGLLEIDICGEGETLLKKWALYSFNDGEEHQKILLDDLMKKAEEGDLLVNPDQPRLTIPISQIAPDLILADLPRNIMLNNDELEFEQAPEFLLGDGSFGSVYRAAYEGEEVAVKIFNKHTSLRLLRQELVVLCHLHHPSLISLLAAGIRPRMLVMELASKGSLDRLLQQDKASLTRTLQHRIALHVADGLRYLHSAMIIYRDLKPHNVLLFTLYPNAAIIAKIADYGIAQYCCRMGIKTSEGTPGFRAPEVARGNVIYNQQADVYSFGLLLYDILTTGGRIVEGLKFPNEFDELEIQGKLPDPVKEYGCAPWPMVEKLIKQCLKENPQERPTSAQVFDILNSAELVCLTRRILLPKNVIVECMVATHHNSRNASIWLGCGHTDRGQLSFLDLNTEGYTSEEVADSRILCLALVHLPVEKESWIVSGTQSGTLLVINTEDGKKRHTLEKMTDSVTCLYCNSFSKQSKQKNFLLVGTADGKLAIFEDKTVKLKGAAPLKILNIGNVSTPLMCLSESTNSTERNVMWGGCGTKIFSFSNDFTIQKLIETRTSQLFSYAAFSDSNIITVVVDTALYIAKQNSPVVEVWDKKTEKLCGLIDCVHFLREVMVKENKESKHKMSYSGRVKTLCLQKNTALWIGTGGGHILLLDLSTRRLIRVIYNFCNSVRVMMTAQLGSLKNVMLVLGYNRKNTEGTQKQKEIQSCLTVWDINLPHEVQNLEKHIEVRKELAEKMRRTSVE
UniProt P50750, sequence (whole entry, looked up): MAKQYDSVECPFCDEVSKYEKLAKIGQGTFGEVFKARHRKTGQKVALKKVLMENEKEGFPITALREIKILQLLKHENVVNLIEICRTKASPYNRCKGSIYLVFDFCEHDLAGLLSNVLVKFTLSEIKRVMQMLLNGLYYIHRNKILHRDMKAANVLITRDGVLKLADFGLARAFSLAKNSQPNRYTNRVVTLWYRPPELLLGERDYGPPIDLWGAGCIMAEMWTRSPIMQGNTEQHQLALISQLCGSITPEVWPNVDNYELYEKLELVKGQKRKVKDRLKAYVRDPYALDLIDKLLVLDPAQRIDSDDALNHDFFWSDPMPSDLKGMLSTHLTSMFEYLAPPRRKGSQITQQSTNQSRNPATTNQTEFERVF
UniProt P48729, sequence (whole entry, looked up): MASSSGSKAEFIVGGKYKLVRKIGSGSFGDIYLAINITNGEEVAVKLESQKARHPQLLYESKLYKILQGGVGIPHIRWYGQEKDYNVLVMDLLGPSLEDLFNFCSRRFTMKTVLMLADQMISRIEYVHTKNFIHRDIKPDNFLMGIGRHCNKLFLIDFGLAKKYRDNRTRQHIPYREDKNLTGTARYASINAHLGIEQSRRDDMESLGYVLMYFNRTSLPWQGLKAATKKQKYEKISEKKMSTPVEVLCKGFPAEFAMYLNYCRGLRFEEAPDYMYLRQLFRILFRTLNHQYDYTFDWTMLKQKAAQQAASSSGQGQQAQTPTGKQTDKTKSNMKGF
UniProt P54756, sequence (whole entry, looked up): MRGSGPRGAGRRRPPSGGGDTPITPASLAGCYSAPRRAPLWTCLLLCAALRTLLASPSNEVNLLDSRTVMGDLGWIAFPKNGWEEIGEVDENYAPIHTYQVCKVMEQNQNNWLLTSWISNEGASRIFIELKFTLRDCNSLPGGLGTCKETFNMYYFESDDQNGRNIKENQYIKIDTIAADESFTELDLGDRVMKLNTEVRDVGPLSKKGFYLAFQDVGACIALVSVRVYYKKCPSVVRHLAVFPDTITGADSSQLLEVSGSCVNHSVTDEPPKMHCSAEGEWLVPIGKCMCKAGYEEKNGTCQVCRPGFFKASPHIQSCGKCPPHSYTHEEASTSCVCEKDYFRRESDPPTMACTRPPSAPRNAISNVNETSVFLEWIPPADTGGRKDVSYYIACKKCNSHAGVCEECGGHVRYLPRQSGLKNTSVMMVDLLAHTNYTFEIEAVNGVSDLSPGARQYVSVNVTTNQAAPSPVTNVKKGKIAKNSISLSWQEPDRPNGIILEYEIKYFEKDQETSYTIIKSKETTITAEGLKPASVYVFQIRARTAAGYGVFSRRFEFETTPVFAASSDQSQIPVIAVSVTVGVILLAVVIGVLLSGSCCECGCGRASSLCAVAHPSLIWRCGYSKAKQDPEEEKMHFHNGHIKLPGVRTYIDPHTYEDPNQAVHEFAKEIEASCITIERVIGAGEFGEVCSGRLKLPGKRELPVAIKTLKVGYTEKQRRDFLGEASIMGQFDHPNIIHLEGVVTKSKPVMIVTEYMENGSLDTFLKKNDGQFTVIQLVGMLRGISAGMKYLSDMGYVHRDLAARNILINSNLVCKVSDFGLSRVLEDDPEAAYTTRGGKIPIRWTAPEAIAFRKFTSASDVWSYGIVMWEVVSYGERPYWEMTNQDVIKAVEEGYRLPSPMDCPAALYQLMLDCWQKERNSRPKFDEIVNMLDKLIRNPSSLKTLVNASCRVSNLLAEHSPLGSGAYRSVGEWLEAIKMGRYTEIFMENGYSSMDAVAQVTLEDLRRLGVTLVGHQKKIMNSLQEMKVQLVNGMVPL
UniProt P52564, sequence (whole entry, looked up): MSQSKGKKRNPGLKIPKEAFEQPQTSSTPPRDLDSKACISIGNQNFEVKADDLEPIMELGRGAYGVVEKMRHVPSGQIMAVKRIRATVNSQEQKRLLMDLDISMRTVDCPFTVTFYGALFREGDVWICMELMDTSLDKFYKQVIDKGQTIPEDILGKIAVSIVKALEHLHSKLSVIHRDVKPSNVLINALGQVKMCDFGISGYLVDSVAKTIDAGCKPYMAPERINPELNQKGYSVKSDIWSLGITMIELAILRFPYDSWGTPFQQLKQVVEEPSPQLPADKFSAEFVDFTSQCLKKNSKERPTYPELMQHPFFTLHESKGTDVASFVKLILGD

Sample 1
SMILES: c1ccc2c(-c3ccncc3)c[nH]c2c1
Read-out: enzyme activity
Mode: inhibitor
Concentration: 0.5 µM
Baseline: control
Quantity: remaining activity
Serine/threonine-protein kinase Chk1 (CHEK1, Homo sapiens, UniProt O14757): 104%
Casein kinase II subunit alpha (CSNK2A1, Homo sapiens, UniProt P68400): 95%
Serine/threonine-protein kinase 38 (STK38, Homo sapiens, UniProt Q15208): 109%
Dual specificity mitogen-activated protein kinase kinase 6 (MAP2K6, Homo sapiens, UniProt P52564): 106%
Casein kinase I isoform alpha (CSNK1A1, Homo sapiens, UniProt P48729): 100%
Protein kinase C iota type (PRKCI, Homo sapiens, UniProt P41743): 82.4%
Ephrin type-A receptor 5 (EPHA5, Homo sapiens, UniProt P54756): 99.4%
Interleukin-1 receptor-associated kinase 4 (IRAK4, Homo sapiens, UniProt Q9NWZ3): 109%
Mitogen-activated protein kinase kinase kinase kinase 2 (MAP4K2, Homo sapiens, UniProt Q12851): 101%
Protein kinase C delta type (PRKCD, Homo sapiens, UniProt Q05655): 83.2%
Serine/threonine-protein kinase WNK2 (WNK2, Homo sapiens, UniProt Q9Y3S1): 96.9%
Mast/stem cell growth factor receptor Kit (KIT, Homo sapiens, UniProt P10721): 93.2%
Mitogen-activated protein kinase 12 (MAPK12, Homo sapiens, UniProt P53778): 104%
Serine/threonine-protein kinase Nek4 (NEK4, Homo sapiens, UniProt P51957): 95.4%
RAC-gamma serine/threonine-protein kinase (AKT3, Homo sapiens, UniProt Q9Y243): 101%
Leucine-rich repeat serine/threonine-protein kinase 2 (LRRK2, Homo sapiens, UniProt Q5S007): 92.8%
Mitogen-activated protein kinase 13 (MAPK13, Homo sapiens, UniProt O15264): 123%
Tyrosine-protein kinase BTK (BTK, Homo sapiens, UniProt Q06187): 104%
MAP kinase-interacting serine/threonine-protein kinase 2 (MKNK2, Homo sapiens, UniProt Q9HBH9): 39.2%
Tyrosine-protein kinase Lyn (LYN, Homo sapiens, UniProt P07948): 102%
cGMP-dependent protein kinase 1 (PRKG1, Homo sapiens, UniProt Q13976): 64.8%
Cyclin-dependent kinase 9, with cyclin T1 (CDK9, Homo sapiens, UniProt P50750): 75.2%
Serine/threonine-protein kinase PLK2 (PLK2, Homo sapiens, UniProt Q9NYY3): 99.9%

Sample 2
Cell line: sample G normal colon organoids
Method: CellTiter-Glo
Medium: human patient-derived organoids
Concentration: 0.1 µM
Time: 4 days
Baseline: DMSO control
Quantity: viability
Cc1cc(Nc2nccc(C)n2)cc(-c2cnc([C@@]3(O)CC[C@H](C(=O)O)C(C)(C)C3)s2)c1: 114%
O=S(=O)(NC1CCC(c2cc(F)ccc2F)(S(=O)(=O)c2ccc(Cl)cc2)CC1)C(F)(F)F (stereo not drawn): 109%
CC(C)(C)OC(=O)N1CCCC1CNC1CCC(c2cc(F)ccc2F)(S(=O)(=O)c2ccc(Cl)cc2)CC1 (stereo not drawn): 114%
CNC(=O)c1ccc(Nc2ncc(C(F)(F)F)c(NCc3nccnc3N(C)S(C)(=O)=O)n2)cc1: 91%
Cc1cc(C)c(-n2ccn3nc(-c4cccnc4)cc23)cc1NC(=O)c1cc(C#N)cc(S(F)(F)(F)(F)F)c1: 116%
Cc1ccc(-c2cnc([C@@]3(O)CC[C@H](C(=O)O)C(C)(C)C3)s2)cc1Nc1cccc(C(F)(F)F)n1: 103%
COc1cccc(CNC(=O)c2nc3scc(COCc4ccc(C(=O)O)cc4)c3c(=O)[nH]2)c1: 116%
Cc1c(NC(=O)c2cc(C(N)=O)nc3cc(F)ccc23)c(C(F)(F)F)nn1Cc1ccc(C(C)(C)C)cc1: 82.2%
CN(C)C(=O)Cn1cc(-c2nc([C@@](C)(c3ccc(-c4cnc(N)nc4)cc3)C3CC3)no2)cn1: 111%

Sample 3
Compound: CC(=O)N[C@@H](Cc1c[nH]c2ccccc12)C(=O)N[C@@H](CCC(=O)C=[N+]=[N-])C(=O)OC(C)C
Dose: dose not given
Quantity: fold change
metabolomics, item: phenol sulfate; mouse, EL4 tumour; baseline: vehicle: 2.81
metabolomics, item: S-adenosylhomocysteine; mouse, EL4 tumour; baseline: vehicle: 0.441
item: 3-hydroxykynurenine; mouse, EL4 tumour-bearing, EL4 tumour; baseline: vehicle: 0.261
item: 2'-deoxyadenosine 3'-monophosphate; mouse, EL4 tumour, tumour; baseline: vehicle: 2.21
item: cysteine-glutathione disulfide; Mus musculus, EL4 tumour; baseline: over vehicle: 4.17
item: 3'-AMP; mouse, EL4 tumour-bearing, EL4 tumour; baseline: vehicle: 3.15
item: hippurate; mouse, EL4 tumour-bearing, EL4 tumour; baseline: vehicle: 2.08
item: carnosine; mouse, EL4 tumour-bearing, EL4 tumour; baseline: vehicle: 4.8
item: phenyllactate; mouse, EL4 tumour-bearing, EL4 tumour; baseline: vehicle: 0.414
item: 4-hydroxyglutamate; mouse, EL4 tumour-bearing, EL4 tumour; baseline: vehicle: 0.453
item: 1-methylhistidine; mouse, EL4 tumour-bearing, EL4 tumour; baseline: vehicle: 0.444
item: cinnamoylglycine; mouse, EL4 tumour-bearing, EL4 tumour; baseline: vehicle: 2.08

Sample 4
Structure (SMILES): COc1cc(C(=O)N2CCC(N3CCN(C)CC3)CC2)ccc1Nc1ncc2c(n1)N(C)c1ccccc1C(=O)N2C
Quantity: remaining activity
HER4; kinase activity; 1 µM: 68 ± 1%
EPH-B4; kinase activity; 10 µM: 107 ± 12%
JNK2; kinase activity; 1 µM: 79 ± 3%
p38b MAPK; kinase activity; 1 µM: 73 ± 2%
SmMLCK; kinase activity; 1 µM: 76 ± 8%
PKA; kinase activity; 1 µM: 79 ± 5%
S6K1; kinase activity; 10 µM: 81 ± 17%
YES1; kinase activity; 10 µM: 82 ± 9%
MLK3; kinase activity; 10 µM: 84 ± 9%
Serine/threonine-protein kinase PLK1 (PLK1, Homo sapiens, UniProt P53350); 10 µM: 35 ± 3%
